# Results of several laboratories.
# Every numbered part comes from another study and shows a few of its results, in no order. Positions count from the first letter of the parent shown.

# Block 1
# Target: CCNF, cyclin fold, Cln2 fusion (human)
# Method: yeast growth competition, sequencing
# Matrix: yeast
# Setting: strong parent motif
# Reference: not given
# Direction: higher = stronger binding
# Parent: viral docking peptide; PGASRRLFGSSAD
Variant,normalised enrichment score
PGASRRLFGSAAD [S11A],4.05
PGASRRLFGASAD [S10A],2.66
PGASRALFGSSAD [R6A],1.71
PGASRRAFGSSAD [L7A],0.778
PGASRRLAGSSAD [F8A],0.138
PGASARAFGSSAD [R5A L7A],0.55
PGASKRLLGSSAD [R5K F8L],0.793

# Block 2
# Target: UDP-N-acetylglucosamine--peptide N-acetylglucosaminyltransferase 110 kDa subunit (OGT, Homo sapiens, UniProt O15294)
# UniProt O15294, sequence (whole entry, looked up): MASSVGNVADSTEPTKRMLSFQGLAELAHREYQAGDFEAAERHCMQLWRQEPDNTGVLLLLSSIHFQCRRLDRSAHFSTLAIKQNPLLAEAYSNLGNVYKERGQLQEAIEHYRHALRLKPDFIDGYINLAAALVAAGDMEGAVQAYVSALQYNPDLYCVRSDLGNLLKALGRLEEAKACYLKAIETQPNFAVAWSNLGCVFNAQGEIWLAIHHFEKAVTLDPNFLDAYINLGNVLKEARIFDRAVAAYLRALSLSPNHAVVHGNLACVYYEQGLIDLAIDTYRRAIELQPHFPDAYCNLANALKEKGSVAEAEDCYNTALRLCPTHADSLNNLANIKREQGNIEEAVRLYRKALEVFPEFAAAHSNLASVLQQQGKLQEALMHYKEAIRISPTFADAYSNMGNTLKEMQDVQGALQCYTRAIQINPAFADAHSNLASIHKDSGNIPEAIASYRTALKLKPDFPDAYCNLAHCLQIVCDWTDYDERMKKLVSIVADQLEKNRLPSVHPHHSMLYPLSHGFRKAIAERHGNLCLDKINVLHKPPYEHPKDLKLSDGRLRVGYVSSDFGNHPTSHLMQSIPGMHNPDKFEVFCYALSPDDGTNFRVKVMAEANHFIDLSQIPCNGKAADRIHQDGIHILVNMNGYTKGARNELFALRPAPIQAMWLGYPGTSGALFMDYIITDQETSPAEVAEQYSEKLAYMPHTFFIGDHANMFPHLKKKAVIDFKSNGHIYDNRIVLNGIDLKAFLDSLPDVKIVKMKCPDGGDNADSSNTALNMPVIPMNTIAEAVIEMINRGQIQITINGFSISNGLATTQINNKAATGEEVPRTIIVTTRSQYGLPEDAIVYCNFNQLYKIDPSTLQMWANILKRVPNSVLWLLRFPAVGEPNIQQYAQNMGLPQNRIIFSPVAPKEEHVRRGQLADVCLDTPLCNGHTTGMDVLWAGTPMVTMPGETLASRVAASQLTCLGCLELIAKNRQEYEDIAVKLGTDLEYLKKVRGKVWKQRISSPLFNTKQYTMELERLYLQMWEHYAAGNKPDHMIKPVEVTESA
# Effect on: binding
# Method: phage display NGS
# Form: peptide
# Setting: panning round 2
# Reference: input library
Molecule,minimum log2 enrichment ratio
HQPWPVAQHSHVHHR,2.37
HQAHHNMQWFQQDHV,2.39
NDMFAPKYQLTWREF,5.37
SHPIHHSLIKMKHNH,1.92

# Block 3
# Target: Sal-like protein 4, full length isoform B (SALL4, Homo sapiens, UniProt Q9UJQ4-2, residues 1-616)
# Method: universal PBM
# Form: double-stranded DNA, one strand shown
# Matrix: in vitro
# Concentration: not given
# Setting: 8-mer, flanks averaged, mean of replicates
# Direction: higher = stronger binding
Sequence,E-score
GTGTATTA,0.326
CGCTGTCA,-0.291
ATGCACAG,-0.037
ATTCTTTG,0.187
ACAATTGC,0.166
AAACCGTT,-0.0961
CTATGGAA,0.188
AGCACAGC,-0.14

# Block 4
# Target: XBP1, bZIP domain (human)
# Method: DHFR protein complementation
# Matrix: yeast
# Setting: single substitutions, most at no-binding floor
# Reference: wild-type JUN-FOS pair
# Direction: higher = stronger binding
# Parent: JUN, bZIP domain (human); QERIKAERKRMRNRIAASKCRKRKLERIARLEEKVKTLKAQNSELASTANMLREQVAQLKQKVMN; partner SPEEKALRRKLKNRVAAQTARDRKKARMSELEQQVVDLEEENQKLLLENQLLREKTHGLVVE
Variant,binding fitness
L31E,-1.51 natural log
R53N,-1.32 natural log
A49S,-1.16 natural log
E44V,-0.826 natural log
A40I,-0.738 natural log
A57H,-1.01 natural log
T37E,-0.412 natural log
S43C,-0.903 natural log

# For quick reference, copied from above (block 2):
Molecule,minimum log2 enrichment ratio
HQAHHNMQWFQQDHV,2.39
NDMFAPKYQLTWREF,5.37
